Earlier results, collected from citations in different studies.

With Nc1c(Cc2cccc3ccccc23)c(C2CC2)c2n(c1=O)C(C(=O)Nc1ccccc1)CS2 (stereo not drawn) the EC50 was < 0.06 µM (Chlamydia trachomatis; infectivity; serovar L2).
The EC50 of NC[C@@H]1O[C@H](O[C@H]2[C@@H](O)[C@H](O[C@@H]3[C@@H](O)[C@H](N)C[C@H](N)[C@H]3O[C@H]3O[C@H](CO)[C@@H](O)[C@H](O)[C@H]3N)O[C@@H]2CO)[C@H](N)[C@@H](O)[C@@H]1O is reported as 6.6 µM (Leishmania donovani; intramacrophage amastigotes).
OC(CN1CCC2(CC1)CC(O)c1ccc3ccccc3c1O2)c1ccc(F)c(F)c1 (stereo not drawn) has an EC50 of 0.35 µM (Plasmodium falciparum; Dd2 chloroquine-resistant).
For COc1ccc(C(=O)NN=Cc2ccc(O)c3ncccc23)cc1, the EC50 was 56 µM (Staphylococcus aureus; bacterial growth; methicillin-resistant).
Nc1ccn([C@@H]2CS[C@H](CO)O2)c(=O)n1 has an EC50 of 0.017 µM (HIV-1; MT-4, LAI.04).
With COc1ccc(C(=O)Nc2c(Cl)cncc2Cl)cc1OC1CCCC1 the EC50 was 9.6 µM (Trypanosoma brucei brucei; cell growth).
The EC50 of OC(Cn1cncn1)(Cn1cncn1)c1ccc(F)cc1F is reported as > 100 µM (Leishmania donovani; growth; LV82 promastigote).
For C[C@@H]1[C@H](O)[C@@H](C)/C=C/C=C/C=C/C=C/C=C/C=C/C=C/[C@H](O[C@@H]2O[C@H](C)[C@@H](O)[C@H](N)[C@@H]2O)C[C@@H]2O[C@](O)(C[C@@H](O)C[C@@H](O)[C@H](O)CC[C@@H](O)C[C@@H](O)CC(=O)O[C@H]1C)C[C@H](O)[C@H]2C(=O)O, the EC50 was 0.07 µM (Leishmania donovani; intramacrophage amastigotes).
With C[C@H]1c2cccc(O)c2C(=O)C2=C(O)[C@]3(O)C(=O)C(C(N)=O)=C(O)[C@@H](N(C)C)[C@@H]3[C@@H](O)[C@@H]21 the EC50 was 3.2 µM (Plasmodium falciparum; parasite growth; blood stage; with: IPP supplementation).
COc1cc(Cc2cnc(N)nc2N)cc(OC)c1OC gave an EC50 of ~8.6 µM (Sarcocystis neurona; parasite growth).
For CCc1nc(N)nc(N)c1-c1ccc(Cl)cc1, the EC50 was 0.402 µM (Toxoplasma gondii; parasite growth; RH).
The EC50 of Cc1cn([C@H]2C[C@H](N=[N+]=[N-])[C@@H](CO)O2)c(=O)[nH]c1=O is reported as 0.003 µM (HIV-1; MT-4, LAI.04).
With CN[C@@H]1[C@H](O[C@@H]2OC[C@@H](O)[C@H](O)[C@H]2O)[C@@H](O)[C@H](O[C@H]2c3cc(C)c(C(=O)N[C@H](C)C(=O)O)c(O)c3-c3c(cc4c(c3O)C(=O)c3cc(OC)cc(O)c3C4=O)[C@@H]2O)O[C@@H]1C the EC50 was ≥ 15 µM (HIV-1; giant cell formation).
For Cn1c(C(=O)NCCCc2c[nH]c(N)n2)cc(Br)c1Br, the EC50 was 215 µM (Pseudomonas aeruginosa; biofilm dispersion; PA14; 50% dispersion).
The EC50 of CC(C)Nc1nc2cc(Cl)c(Cl)cc2n1[C@H]1O[C@@H](CO)[C@H](O)[C@@H]1O is reported as 0.35 µM (human cytomegalovirus; viral replication).

A few entries again:
The EC50 of OC(Cn1cncn1)(Cn1cncn1)c1ccc(F)cc1F is reported as > 100 µM (Leishmania donovani; growth; LV82 promastigote).
The EC50 of CC(C)Nc1nc2cc(Cl)c(Cl)cc2n1[C@H]1O[C@@H](CO)[C@H](O)[C@@H]1O is reported as 0.35 µM (human cytomegalovirus; viral replication).
